Assay results of several laboratories.
Each numbered part is a random draw from the data of one study; scales do not carry over between parts.
Sequence of UniProt Q8IYT8 (whole entry, looked up): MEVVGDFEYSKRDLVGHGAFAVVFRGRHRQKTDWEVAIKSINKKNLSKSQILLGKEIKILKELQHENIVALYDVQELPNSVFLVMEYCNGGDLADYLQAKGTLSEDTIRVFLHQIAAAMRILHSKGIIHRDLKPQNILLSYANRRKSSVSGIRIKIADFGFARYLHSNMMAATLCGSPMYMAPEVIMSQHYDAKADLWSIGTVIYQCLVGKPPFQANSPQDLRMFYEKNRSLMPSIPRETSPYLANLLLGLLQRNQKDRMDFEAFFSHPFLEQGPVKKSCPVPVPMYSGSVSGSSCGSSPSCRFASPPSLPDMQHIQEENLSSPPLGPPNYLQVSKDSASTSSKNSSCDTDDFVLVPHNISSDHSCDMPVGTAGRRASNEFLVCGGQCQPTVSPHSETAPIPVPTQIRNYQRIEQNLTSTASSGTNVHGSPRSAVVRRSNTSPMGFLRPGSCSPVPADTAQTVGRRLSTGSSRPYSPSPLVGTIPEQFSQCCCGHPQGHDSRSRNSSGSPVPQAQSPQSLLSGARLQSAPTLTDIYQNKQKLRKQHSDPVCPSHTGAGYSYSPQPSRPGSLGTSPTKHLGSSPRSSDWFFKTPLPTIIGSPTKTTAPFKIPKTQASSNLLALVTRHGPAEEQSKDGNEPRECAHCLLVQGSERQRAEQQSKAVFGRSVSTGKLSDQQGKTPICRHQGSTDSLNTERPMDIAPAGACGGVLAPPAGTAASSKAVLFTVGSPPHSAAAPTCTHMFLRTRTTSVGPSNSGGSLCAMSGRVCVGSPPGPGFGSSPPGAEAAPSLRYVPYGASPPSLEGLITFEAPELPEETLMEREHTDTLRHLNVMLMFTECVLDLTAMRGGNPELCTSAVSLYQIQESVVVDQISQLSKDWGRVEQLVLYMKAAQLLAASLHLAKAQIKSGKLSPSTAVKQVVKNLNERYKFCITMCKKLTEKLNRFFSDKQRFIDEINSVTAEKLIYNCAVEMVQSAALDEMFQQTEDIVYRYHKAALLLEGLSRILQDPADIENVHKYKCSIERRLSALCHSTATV
Sequence of UniProt P11362 (whole entry, looked up): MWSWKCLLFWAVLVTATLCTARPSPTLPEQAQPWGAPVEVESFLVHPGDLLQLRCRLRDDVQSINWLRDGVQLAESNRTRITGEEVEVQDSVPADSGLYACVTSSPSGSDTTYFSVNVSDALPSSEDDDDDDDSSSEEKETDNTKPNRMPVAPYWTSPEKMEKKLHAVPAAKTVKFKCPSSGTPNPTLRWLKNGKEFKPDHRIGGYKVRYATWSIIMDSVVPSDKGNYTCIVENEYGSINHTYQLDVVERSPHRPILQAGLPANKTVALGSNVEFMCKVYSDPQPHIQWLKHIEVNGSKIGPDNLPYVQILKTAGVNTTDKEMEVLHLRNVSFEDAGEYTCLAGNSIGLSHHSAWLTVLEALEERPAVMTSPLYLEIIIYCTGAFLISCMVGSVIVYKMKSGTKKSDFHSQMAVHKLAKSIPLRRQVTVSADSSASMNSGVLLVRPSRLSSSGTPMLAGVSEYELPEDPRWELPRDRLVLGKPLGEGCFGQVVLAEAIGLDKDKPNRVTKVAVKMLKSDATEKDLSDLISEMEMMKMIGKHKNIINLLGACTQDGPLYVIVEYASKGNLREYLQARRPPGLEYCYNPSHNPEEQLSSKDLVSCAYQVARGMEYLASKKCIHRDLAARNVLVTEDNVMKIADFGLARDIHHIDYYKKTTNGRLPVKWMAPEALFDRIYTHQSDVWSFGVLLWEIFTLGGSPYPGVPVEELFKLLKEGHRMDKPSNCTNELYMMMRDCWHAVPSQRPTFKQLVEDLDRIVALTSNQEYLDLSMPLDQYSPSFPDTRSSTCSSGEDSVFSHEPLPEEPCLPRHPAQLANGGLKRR
Sequence of UniProt P52333 (whole entry, looked up): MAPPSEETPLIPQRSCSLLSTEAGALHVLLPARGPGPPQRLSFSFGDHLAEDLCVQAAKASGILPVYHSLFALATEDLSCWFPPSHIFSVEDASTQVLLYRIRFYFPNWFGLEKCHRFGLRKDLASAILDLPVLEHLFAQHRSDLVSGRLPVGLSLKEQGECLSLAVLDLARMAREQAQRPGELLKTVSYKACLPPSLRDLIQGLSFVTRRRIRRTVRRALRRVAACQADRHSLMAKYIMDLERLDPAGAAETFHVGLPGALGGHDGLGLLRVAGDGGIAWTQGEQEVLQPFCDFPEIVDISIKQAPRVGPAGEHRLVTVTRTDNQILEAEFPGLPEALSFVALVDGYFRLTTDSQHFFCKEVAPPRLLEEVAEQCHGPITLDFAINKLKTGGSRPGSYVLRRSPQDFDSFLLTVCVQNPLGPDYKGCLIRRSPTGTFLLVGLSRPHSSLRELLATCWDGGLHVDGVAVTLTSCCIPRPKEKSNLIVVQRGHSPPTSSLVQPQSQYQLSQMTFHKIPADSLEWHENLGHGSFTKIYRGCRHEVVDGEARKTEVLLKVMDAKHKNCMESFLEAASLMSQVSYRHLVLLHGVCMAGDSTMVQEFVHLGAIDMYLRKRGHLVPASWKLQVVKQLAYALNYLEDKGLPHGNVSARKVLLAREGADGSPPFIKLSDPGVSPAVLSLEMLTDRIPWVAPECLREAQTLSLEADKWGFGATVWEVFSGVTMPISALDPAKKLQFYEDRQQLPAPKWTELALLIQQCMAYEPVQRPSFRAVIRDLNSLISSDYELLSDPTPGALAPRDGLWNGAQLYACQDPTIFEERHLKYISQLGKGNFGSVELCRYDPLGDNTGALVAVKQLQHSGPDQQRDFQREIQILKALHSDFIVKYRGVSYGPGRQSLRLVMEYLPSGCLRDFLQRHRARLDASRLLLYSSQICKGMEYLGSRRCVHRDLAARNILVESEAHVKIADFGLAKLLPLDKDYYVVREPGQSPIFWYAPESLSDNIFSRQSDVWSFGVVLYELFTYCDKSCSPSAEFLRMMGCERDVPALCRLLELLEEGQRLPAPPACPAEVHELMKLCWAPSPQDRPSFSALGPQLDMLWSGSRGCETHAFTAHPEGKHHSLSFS
Sequence of UniProt Q02763 (whole entry, looked up): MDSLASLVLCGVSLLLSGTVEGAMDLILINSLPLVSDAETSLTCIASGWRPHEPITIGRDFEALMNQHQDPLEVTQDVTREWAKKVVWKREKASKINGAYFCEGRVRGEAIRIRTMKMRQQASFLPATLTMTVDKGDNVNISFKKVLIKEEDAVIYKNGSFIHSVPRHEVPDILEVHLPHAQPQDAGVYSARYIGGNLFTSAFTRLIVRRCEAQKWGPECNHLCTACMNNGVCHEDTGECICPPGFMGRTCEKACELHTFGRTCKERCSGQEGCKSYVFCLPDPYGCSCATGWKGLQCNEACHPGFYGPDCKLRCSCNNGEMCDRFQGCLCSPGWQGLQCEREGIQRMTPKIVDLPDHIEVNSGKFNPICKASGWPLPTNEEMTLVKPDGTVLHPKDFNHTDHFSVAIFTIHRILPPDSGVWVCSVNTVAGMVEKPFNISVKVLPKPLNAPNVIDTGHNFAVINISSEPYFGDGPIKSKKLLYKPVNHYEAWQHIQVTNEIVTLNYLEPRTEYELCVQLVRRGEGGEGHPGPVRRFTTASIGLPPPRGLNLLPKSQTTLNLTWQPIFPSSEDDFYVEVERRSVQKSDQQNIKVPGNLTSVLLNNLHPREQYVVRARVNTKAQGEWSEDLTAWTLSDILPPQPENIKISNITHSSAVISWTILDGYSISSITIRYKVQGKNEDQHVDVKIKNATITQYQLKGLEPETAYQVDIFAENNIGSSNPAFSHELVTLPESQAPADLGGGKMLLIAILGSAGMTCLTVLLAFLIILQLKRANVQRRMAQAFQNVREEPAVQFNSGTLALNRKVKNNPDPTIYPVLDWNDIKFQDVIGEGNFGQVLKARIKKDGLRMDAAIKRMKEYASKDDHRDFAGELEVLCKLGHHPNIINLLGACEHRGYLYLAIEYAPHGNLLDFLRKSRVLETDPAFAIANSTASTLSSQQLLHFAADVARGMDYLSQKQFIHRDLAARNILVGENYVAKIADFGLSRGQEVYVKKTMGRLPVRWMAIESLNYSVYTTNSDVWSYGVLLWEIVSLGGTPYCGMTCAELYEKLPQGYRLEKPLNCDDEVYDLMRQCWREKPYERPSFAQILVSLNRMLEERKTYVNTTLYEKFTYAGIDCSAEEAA
Sequence of UniProt P49137 (whole entry, looked up): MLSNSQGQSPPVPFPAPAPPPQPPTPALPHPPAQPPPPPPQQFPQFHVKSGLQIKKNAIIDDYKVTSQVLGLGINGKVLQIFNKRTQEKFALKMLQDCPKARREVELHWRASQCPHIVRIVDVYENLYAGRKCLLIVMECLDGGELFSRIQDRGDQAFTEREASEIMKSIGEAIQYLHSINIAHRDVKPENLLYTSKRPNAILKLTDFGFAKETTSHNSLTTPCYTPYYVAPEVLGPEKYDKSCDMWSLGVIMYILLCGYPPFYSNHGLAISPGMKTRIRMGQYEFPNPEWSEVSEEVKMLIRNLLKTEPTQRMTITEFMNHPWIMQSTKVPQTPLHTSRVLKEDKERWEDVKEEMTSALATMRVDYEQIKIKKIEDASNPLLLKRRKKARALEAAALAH
Sequence of UniProt Q9HC98 (whole entry, looked up): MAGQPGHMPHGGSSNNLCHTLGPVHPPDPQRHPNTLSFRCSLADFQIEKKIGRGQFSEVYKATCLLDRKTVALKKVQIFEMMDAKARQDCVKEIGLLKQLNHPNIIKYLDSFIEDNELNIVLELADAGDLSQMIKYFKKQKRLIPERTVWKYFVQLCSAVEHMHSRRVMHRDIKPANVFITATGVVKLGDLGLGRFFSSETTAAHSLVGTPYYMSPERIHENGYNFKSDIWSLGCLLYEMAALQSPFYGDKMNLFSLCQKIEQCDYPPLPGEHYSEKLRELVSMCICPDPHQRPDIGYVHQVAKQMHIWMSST

Block 1
Cell line: HaCaT
Concentration: 100 µM
Time: 18 h
Measurement: viability
CCC(=O)O[C@]1(C(=O)CCl)[C@@H](C)C[C@H]2[C@@H]3CCC4=CC(=O)C=C[C@]4(C)[C@@]3(F)[C@@H](O)C[C@@]21C: 72.4%
Nc1c2c(nc3ccccc13)CCCC2: 75.4%
COc1c(N2CCNC(C)C2)c(F)cc2c(=O)c(C(=O)O)cn(C3CC3)c12 (stereo not drawn): 117%
CCN(CC)CCCC(C)Nc1c2ccc(Cl)cc2nc2ccc(OC)cc12 (stereo not drawn): 19.6%

Block 2
Cell line: mouse MPNST tumor cells
Technique: high-content nuclear imaging
Item: cell number
Concentration: 10 µM
Time: 12 h
Notes: mean of 2 replicates
Relative to: plate mean
Direction: higher = more cells
Measurement: nuclei count
C[C@@H]1C[C@H]2[C@@H]3CCC4=CC(=O)C=C[C@]4(C)[C@@]3(F)[C@@H](O)C[C@]2(C)[C@@]1(O)C(=O)CO: 3.88 z-score
O=C(Nc1ccccc1)N[C@@H]1C[C@@H](C(=O)O)Nc2cc(Cl)cc(Cl)c21: 0.22 z-score
CC(C)c1ccc(OCC(=O)NC2CC(C)(C)NC(C)(C)C2)c(Br)c1: -4.64 z-score
CCCCCCCCCCCCCCCc1cccc(OCC(=O)NCCO)c1: 0.577 z-score

Block 3
Structure (SMILES): Nc1ncnc2c1cnn2-c1ccccc1
Read-out: enzyme activity
Mode: inhibitor
Concentration: 0.5 µM
Relative to: control
Measurement: remaining activity
Serine/threonine-protein kinase Nek6 (NEK6, Homo sapiens, UniProt Q9HC98): 114%
Casein kinase I isoform gamma-3 (CSNK1G3, Homo sapiens, UniProt Q9Y6M4): 93.4%
Ephrin type-A receptor 3 (EPHA3, Homo sapiens, UniProt P29320): 95%
Mitogen-activated protein kinase kinase kinase 14 (MAP3K14, Homo sapiens, UniProt Q99558): 120%
Activin receptor type-1B (ACVR1B, Homo sapiens, UniProt P36896): 99.4%
Serine/threonine-protein kinase ULK2 (ULK2, Homo sapiens, UniProt Q8IYT8): 95.1%
Angiopoietin-1 receptor (TEK, Homo sapiens, UniProt Q02763): 92.2%
Serine/threonine-protein kinase TAO2 (TAOK2, Homo sapiens, UniProt Q9UL54): 93%
Tyrosine-protein kinase JAK3 (JAK3, Homo sapiens, UniProt P52333): 97.4%
Fibroblast growth factor receptor 1 (FGFR1, Homo sapiens, UniProt P11362): 93%
Dual specificity mitogen-activated protein kinase kinase 2 (MAP2K2, Homo sapiens, UniProt P36507): 96.9%
MAP kinase-activated protein kinase 2 (MAPKAPK2, Homo sapiens, UniProt P49137): 98.6%
Tyrosine-protein kinase FRK (FRK, Homo sapiens, UniProt P42685): 101%
Mitogen-activated protein kinase 3 (MAPK3, Homo sapiens, UniProt P27361): 90.1%

Block 4
Target: Translocator protein (Tspo, Rattus norvegicus, UniProt P16257)
Sequence of UniProt P16257 (whole entry, looked up): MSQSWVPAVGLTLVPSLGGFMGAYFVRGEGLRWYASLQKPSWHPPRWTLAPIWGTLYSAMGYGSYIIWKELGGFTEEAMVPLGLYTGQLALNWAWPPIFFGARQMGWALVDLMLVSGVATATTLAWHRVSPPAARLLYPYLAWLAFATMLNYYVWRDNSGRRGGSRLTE
Read-out: radioligand binding
Technique: radioligand displacement
Concentration: 10 µM
Measurement: inhibition
CCCCN(CCCC)C(=O)CN1C[C@H](c2cc(OC)c3c(c2)OCO3)[C@@H](C(=O)O)[C@@H]1CC(C)(C)CCC: 43.2%
CC1CCN(c2ccnc(NCc3cn(C)cn3)n2)CC1: 17.9%
COc1ccc2c(c1)O[C@@H](c1ccc(OC)c(OC)c1)C[C@H]2NC(=O)C1(c2ccc3c(c2)OC(F)(F)O3)CC1 (single isomer, unassigned): 90.5%
O=C(N1CCS(=O)(=O)CC1)N1C[C@H](c2ccc(OC(F)(F)F)cc2)C[C@H](c2nc(C3CC3)no2)C1: 14.9%

Block 5
Technique: PRP chromatography
Notes: linear fit, 1 mL
Measurement: logD 1,9-decadiene/water
CC(C)C[C@@H]1NC(=O)[C@H](C(C)C)NC(=O)[C@H](CCC(=O)N2CCCC2)NC(=O)[C@H](CC(C)C)NC(=O)[C@@H](CCC(=O)N2CCCC2)NC(=O)[C@H](CC(C)C)NC(=O)[C@@H](CC(C)C)NC1=O: -0.936 log units
CC(C)C[C@@H]1NC(=O)[C@H](C)NC(=O)[C@@H](CC(C)C)NC(=O)[C@H](CC(C)C)NC(=O)[C@@H](CCC(=O)N2CCCC2)NC(=O)[C@H](CC(C)C)NC(=O)[C@@H](CC(C)C)NC1=O: 0.662 log units
CC(C)C[C@@H]1NC(=O)[C@H](CC(C)C)NC(=O)[C@@H](CC(C)C)NC(=O)[C@@H](C(C)C)NC(=O)[C@H](C(C)C)NC(=O)[C@H](CC(C)C)NC(=O)[C@@H](CC(C)C)NC1=O: 1.97 log units
CC(C)C[C@@H]1NC(=O)[C@@H](C)NC(=O)[C@@H](CC(C)C)NC(=O)[C@@H](C(C)C)NC(=O)[C@H](C)NC(=O)[C@H](CC(C)C)NC(=O)[C@@H](CC(C)C)NC1=O: -0.544 log units

A few entries again (block 1):
CCC(=O)O[C@]1(C(=O)CCl)[C@@H](C)C[C@H]2[C@@H]3CCC4=CC(=O)C=C[C@]4(C)[C@@]3(F)[C@@H](O)C[C@@]21C: 72.4%
Nc1c2c(nc3ccccc13)CCCC2: 75.4%
COc1c(N2CCNC(C)C2)c(F)cc2c(=O)c(C(=O)O)cn(C3CC3)c12 (stereo not drawn): 117%
CCN(CC)CCCC(C)Nc1c2ccc(Cl)cc2nc2ccc(OC)cc12 (stereo not drawn): 19.6%
